# Measurements collected from several papers.
# Lines come from different studies, so protocols differ. Several values in a cell are separate wells, animals, samples, runs or records. Numbers after ± are the reported error.
# Cell line: HeLa
SMILES,test,conditions,scale,endpoint,result
CCCCCCCCCCCCCC(=O)N[C@H]1C(=O)N[C@@H](CN)C(=O)N[C@@H](CO)C(=O)N[C@@H](Cc2ccc(O)cc2)C(=O)O[C@H]1C,MTT,3.2 mg,,survival,113%
O=C(O)CC[C@H](NC(=O)[C@H](CCC(=O)O)NC(=O)[C@H](CCC(=O)O)NC(=O)[C@H](CCC(=O)O)NC(=O)[C@H](CCC(=O)O)NC(=O)CNC(=O)[C@H](CCC(=O)O)NC(=O)CNC(=O)[C@H](CCC(=O)O)NC(=O)[C@@H](Cc1ccccc1)NC(=O)[C@@H](Cc1ccccc1)NC(=O)Cc1ccc2ccccc2c1)C(=O)O,MTT,"400 µM, 3 days",,viability,~90%
CC1CCC(C(C)(C)C(=O)Nc2ccc(Oc3ccccc3)cc2)CC1 (centres unmarked),cell growth or viability,72 h,,IC50,21.1 µM
CC[C@H](C)[C@H](NC(=O)[C@H](C)NC(=O)[C@H](CCCCN)NC(=O)[C@H](CC(C)C)NC(=O)[C@@H](N)Cc1ccccc1)C(=O)N[C@@H](CCCCN)C(=O)N[C@@H](CCCCN)C(=O)N[C@@H](Cc1ccccc1)C(=O)NCC(=O)N[C@@H](CCCCN)C(=O)N[C@@H](CCC(=O)O)C(=O)N[C@@H](Cc1ccccc1)C(=O)N[C@@H](CCCCN)C(=O)N[C@@H](CCCCN)C(=O)N[C@H](C(=O)NCC(=O)N[C@@H](C)C(=O)N[C@@H](CCCCN)C(=O)N[C@@H](CC(C)C)C(=O)N[C@@H](CCCCN)C(=O)O)[C@@H](C)CC,MTT,32 mg/L,baseline: untreated,cell growth,90.9% and 95.9% and 97.9%
CCCCCCCCCCCC1CC(=O)N[C@@H](CO)C(=O)N[C@H](CO)C(=O)N[C@H](C)C(=O)N(C)[C@@H](C(C)C)C(=O)N[C@H](CO)C(=O)N[C@H](CCCCN)C(=O)N[C@H](CO)C(=O)N[C@@H](CCCCN)C(=O)O1 (some centres unmarked),MTT,3.2 mg,,survival,116%
N=C(N)NCCC[C@@H](NC(=O)[C@@H](CCCNC(=N)N)NC(=O)[C@@H](CCCNC(=N)N)NC(=O)[C@@H](CCCNC(=N)N)NC(=O)[C@@H](CCCNC(=N)N)NC(=O)[C@@H](CCCNC(=N)N)NC(=O)[C@@H](CCCNC(=N)N)NC(=O)[C@@H](CCCNC(=N)N)NC(=O)[C@@H](CCCNC(=N)N)NC(=O)[C@@H](CCCNC(=N)N)NC(=S)Nc1ccc2c(c1)C(=O)OC21c2ccc(O)cc2Oc2cc(O)ccc21)C(=O)O,,,,intracellular stability,stable
CC(C)(C)c1ccc([C@H](O)C[C@H](CO)NC(=O)CCCCCOc2ccc3ccccc3c2)cc1,,"1 µM, lipidomics treatment",,living cells,95% and 92%
CCCCCCCCCCCC1CC(=O)N[C@H]([C@H](C)O)C(=O)N[C@@H](CN)C(=O)N[C@@H](CO)C(=O)N[C@@H](Cc2ccc(O)cc2)C(=O)O1 (some centres unmarked),MTT,3.2 mg,,survival,107%
CCCCCCCCCCCC(=O)N[C@H](CO)C[C@@H](O)c1ccccc1,cell count,"1 µM, 24 h",,living cells,92% and 93% and 86%
CC[C@H](C)[C@H](NC(=O)[C@H](C)NC(=O)[C@H](CCCCN)NC(=O)[C@H](CCCCN)NC(=O)[C@@H](N)CCCNC(=N)N)C(=O)N[C@@H](CCCCN)C(=O)N[C@@H](CC(C)C)C(=O)N[C@H](C(=O)N[C@@H](CCCCN)C(=O)N[C@@H](CCCCN)C(=O)N[C@@H](CC(C)C)C(=O)N[C@H](C(=O)N[C@@H](CCCCN)C(=O)N[C@@H](CCCCN)C(=O)N[C@@H](CC(C)C)C(=O)N[C@@H](CCCCN)C(=O)N[C@@H](CCCCN)C(=O)N[C@@H](C)C(=O)N[C@@H](CC(C)C)C(=O)N[C@@H](CCCCN)C(=O)O)C(C)C)C(C)C,"cell growth or viability, MTT",64 µg/mL,,viability,70.5%
CC(C)=CCc1c(O)cc2c(c1O)C(=O)CC(c1ccc(O)cc1)O2 (centres unmarked),"cytotoxicity, MTT","48 h, together with: S9 fraction",,log IC50,1.45 log µM
Cc1ccn2c(-c3csc(Nc4ccccn4)n3)c(C)nc2c1,"cell growth or viability, ATP luminescence",72 h,,IC50,> 10 µM
CCCCCCCCCCCC1CC(=O)N[C@@H]([C@@H](C)O)C(=O)N[C@@H](Cc2ccccc2)C(=O)N[C@@H]([C@@H](C)O)C(=O)N[C@H]([C@H](C)O)C(=O)N[C@@H]([C@@H](C)O)C(=O)N[C@@H](Cc2ccccc2)C(=O)O1 (some centres unmarked),MTT,32 mg,,survival,-5.2%
S=c1n(-c2ccccc2)c2c3ccccc3nc3[n+]2[n]1[Ir-3]12([S]3)([c]3cccc4ccc5ccc[n+]1c5c34)[c]1cccc3ccc4ccc[n+]2c4c13,ICP-MS,"10 µM, 24 h, 37 °C",,cellular iridium uptake,6.1 ± 0.01 fmol/cell
